# Results of several laboratories.
# Several values in a cell are separate wells, animals, samples, runs or records. ± gives the spread as reported.
SMILES,test,system,setting,scale,quantity,value
N#[11C]c1ccc(-c2csc(NN=C3CCCC3)n2)cc1,,"C57BL/6 mice, male, kidney","intravenous, 3 MBq, 60 min",,radioactivity uptake,4.08 ± 0.09 %ID/g
Cc1ccccc1-c1ccc(-c2nc(-c3ccc(CN(C)CCCC(=O)O)c([18F])c3)no2)cc1C(F)(F)F,,"rat, lung",1 h,,tracer uptake,0.38 %ID/g
O=C1NC2(CC2)COc2ncc(F)cc2[C@H]2COCCN2c2ccn3ncc1c3n2,,"Sprague-Dawley rat, female, serum","oral, 5 mg/kg/day, end of recovery, 4-week subacute toxicity",,serum hepatic lipase activity,3.3 ± 0.2 U/L
C#Cc1c(F)ccc2cc(O)cc(-c3ncc4c(N5CC6CCC(C5)N6C(=O)OC(CCC)OC(=O)CCC)nc(OC[C@@]56CCCN5C[C@H](F)C6)nc4c3F)c12 (stereo partly drawn),chemical stability,simulated intestinal fluid,"1 µM, 30 min",,compound remaining,86.9%
CC(=O)NCCCC[C@@H]1NC(=O)[C@H](Cc2c[nH]c3c(C)cccc23)NC(=O)[C@H]([C@@H](C)O)NC(=O)[C@H](CC(N)=O)NC(=O)[C@@H](NC(C)=O)C(C)(C)SSC(C)(C)[C@@H](C(=O)N[C@@H](Cc2ccc(OCCN)cc2)C(=O)N[C@@H](Cc2ccc3ccccc3c2)C(=O)NC2(C(=O)N[C@@H](CCC(=O)O)C(=O)N[C@@H](CC(N)=O)C(=O)N[C@@H](Cc3cccnc3)C(=O)N(C)CC(N)=O)CCOCC2)NC1=O,equilibrium dialysis,"rat, plasma",1 µM,,plasma protein binding,51.2 ± 1.8%
CSCC[C@H](N)C(=O)N[C@@H](C)C(=O)N[C@@H](Cc1c[nH]c2ccccc12)C(=O)N[C@@H](Cc1c[nH]cn1)C(=O)N[C@@H](CC(=O)O)C(=O)N[C@@H](CC(=O)O)C(=O)N[C@@H](CCC(=O)O)C(=O)N[C@@H](CCC(=O)O)C(=O)N[C@@H](Cc1ccccc1)C(=O)N[C@@H](C)C(=O)N[C@@H](CCCNC(=N)N)C(=O)N[C@@H](CCCNC(=N)N)C(=O)N[C@@H](CCCNC(=N)N)C(=O)N[C@@H](CCCNC(=N)N)C(=O)NCCCCCC(=O)NCCCCC(NC(=O)CCCCCNC(=O)[C@H](CCCNC(=N)N)NC(=O)[C@H](CCCNC(=N)N)NC(=O)[C@H](CCCNC(=N)N)NC(=O)[C@H](CCCNC(=N)N)NC(=O)[C@H](C)NC(=O)[C@H](Cc1ccccc1)NC(=O)[C@H](CCC(=O)O)NC(=O)[C@H](CCC(=O)O)NC(=O)[C@H](CC(=O)O)NC(=O)[C@H](CC(=O)O)NC(=O)[C@H](Cc1c[nH]cn1)NC(=O)[C@H](Cc1c[nH]c2ccccc12)NC(=O)[C@H](C)NC(=O)[C@@H](N)CCSC)C(=O)NCCCCC(NC(=O)C(CCCCNC(=O)CCCCCNC(=O)[C@H](CCCNC(=N)N)NC(=O)[C@H](CCCNC(=N)N)NC(=O)[C@H](CCCNC(=N)N)NC(=O)[C@H](CCCNC(=N)N)NC(=O)[C@H](C)NC(=O)[C@H](Cc1ccccc1)NC(=O)[C@H](CCC(=O)O)NC(=O)[C@H](CCC(=O)O)NC(=O)[C@H](CC(=O)O)NC(=O)[C@H](CC(=O)O)NC(=O)[C@H](Cc1c[nH]cn1)NC(=O)[C@H](Cc1c[nH]c2ccccc12)NC(=O)[C@H](C)NC(=O)[C@@H](N)CCSC)NC(=O)CCCCCNC(=O)[C@H](CCCNC(=N)N)NC(=O)[C@H](CCCNC(=N)N)NC(=O)[C@H](CCCNC(=N)N)NC(=O)[C@H](CCCNC(=N)N)NC(=O)[C@H](C)NC(=O)[C@H](Cc1ccccc1)NC(=O)[C@H](CCC(=O)O)NC(=O)[C@H](CCC(=O)O)NC(=O)[C@H](CC(=O)O)NC(=O)[C@H](CC(=O)O)NC(=O)[C@H](Cc1c[nH]cn1)NC(=O)[C@H](Cc1c[nH]c2ccccc12)NC(=O)[C@H](C)NC(=O)[C@@H](N)CCSC)C(N)=O (stereo partly drawn),,"C57BL/6 mouse female, heart","dose not given, 6 h",reference: total,tissue distribution,0.92% and 0.85% and 0.74%
CC[C@H](C)[C@H](NC(=O)[C@H](CCCCN)NC(=O)CNC(=O)[C@H](CC(C)C)NC(=O)[C@H](Cc1ccccc1)NC(=O)[C@H](CCCCN)NC(=O)[C@H](CO)NC(=O)[C@H](Cc1ccccc1)NC(=O)[C@H](Cc1c[nH]c2ccccc12)NC(=O)[C@H](CCC(N)=O)NC(=O)[C@@H](NC(=O)[C@H](Cc1ccccc1)NC(=O)CCCCCNC(=O)CN1CCN(CC(=O)O)CCN(CC(=O)O)CCN(CC(=O)O)CC1)C(C)C)C(=O)N[C@@H](CCC(=O)O)C(=O)N1CCC[C@H]1C(=O)N[C@@H](CC(=O)O)C(=O)N[C@H](C(=O)N[C@@H](CO)C(=O)N[C@@H](CCC(N)=O)C(=O)N[C@H](C(=O)N[C@@H](CCC(N)=O)C(=O)N[C@@H](CC(=O)O)C(=O)N1CCC[C@H]1C(=O)N[C@@H](CC(N)=O)C(=O)N[C@@H](CC(=O)O)C(=O)N[C@@H](CCC(N)=O)C(=O)N[C@@H](Cc1ccc(O)cc1)C(=O)N[C@@H](CCC(=O)O)C(=O)N1CCC[C@H]1C(=O)N[C@@H](Cc1ccccc1)C(=O)O)C(C)C)C(C)C [copper-64 labelled],dynamic PET,"mouse both sexes, CT26 tumour, checkpoint inhibitor-treated, tumour","intravenous, 100 µCi/mouse, 570 s",,SUVmean,3.7 SUV
CCCCCCCCCCCCCCCC(=O)N[C@@H](CCC(=O)NCCCC[C@H](NC(=O)[C@H](CC(=O)O)NC(=O)[C@H](CO)NC(=O)[C@@H](NC(=O)[C@H](Cc1ccccc1)NC(=O)[C@@H](NC(=O)CNC(=O)[C@H](CCC(N)=O)NC(=O)[C@H](C)NC(=O)[C@@H](Cc1ccc(O)cc1)NC(C)=O)[C@@H](C)O)[C@@H](C)O)C(=O)N[C@@H](CO)C(=O)N[C@@H](CCCCN)C(=O)N[C@@H](Cc1ccc(O)cc1)C(=O)N[C@@H](CC(C)C)C(=O)N[C@@H](CC(=O)O)C(=O)N[C@@H](CCC(=O)O)C(=O)N[C@@H](CCCNC(=N)N)C(=O)N[C@@H](C)C(=O)N[C@@H](C)C(=O)N[C@@H](CCC(N)=O)C(=O)N[C@@H](CC(=O)O)C(=O)N[C@@H](Cc1ccccc1)C(=O)N[C@H](C(=O)N[C@@H](CCC(N)=O)C(=O)N[C@@H](Cc1c[nH]c2ccccc12)C(=O)N[C@@H](CC(C)C)C(=O)N[C@@H](CC(C)C)C(=O)N[C@@H](CCC(=O)O)C(=O)NCC(=O)NCC(=O)N1CCC[C@H]1C(=O)N[C@@H](CO)C(=O)N[C@@H](CO)C(=O)NCC(=O)N[C@@H](C)C(=O)N1CCC[C@H]1C(=O)N1CCC[C@H]1C(=O)N1CCC[C@H]1C(=O)N[C@@H](CO)C(N)=O)C(C)C)C(=O)O,,"Wistar rat, male, plasma","subcutaneous, 0.02 mg/kg",,dose-normalised Cmax,1080 ng/mL per mg/kg
COc1cnc2cccc(N3CCc4c(cc(Cn5ccnc5)cc4-c4cn(C)nc4C(F)(F)F)C3=O)c2c1,,CD-1 mice,"intraperitoneal, 100 mg/kg once daily, day 4",,body weight,30.1 ± 1 g
C=Cc1c(C)c2cc3nc(c(CC(=O)[O-])c4[n-]c(cc5nc(cc1[n-]2)C(C)=C5CC)c(C)c4C(=O)[O-])C(CCC(=O)[O-])C3C.[Cu+2].[Na+].[Na+].[Na+] (stereo not drawn),,"Wistar rat, female","oral, 250 mg/kg daily, 28 days",,blood urea nitrogen,22.3 ± 3.39 mg/dL
O=C(O)c1ccc(-c2nc(-c3ccccc3Cl)c3sccn23)cc1,,"mouse, plasma","oral, dose not given, day 4, no 5-FU",,plasma concentration,4.23 ng/mL and 3.98 ng/mL and 4.87 ng/mL
CSCC[C@@H]1NC(=O)[C@H](C(C)C)NC(=O)[C@H](CCCNC(=N)N)NC(=O)[C@@H]2CCCN2C(=O)CNC(=O)[C@@H](NC(=O)CNC(=O)[C@H](CO)NC(=O)CNC(=O)[C@H](CO)NC(=S)Nc2ccc(C[C@H]3CN(CC(=O)O)CCN(CC(=O)O)CCN3CC(=O)O)cc2)CSSC[C@@H](C(N)=O)NC(=O)[C@@H]2CCCN2C(=O)CNC(=O)[C@H](CCC(=O)O)NC(=O)[C@H](CC(=O)O)NC(=O)[C@H](CC(=O)O)NC(=O)CNC(=O)[C@H](CC(C)C)NC(=O)[C@H](Cc2c[nH]cn2)NC(=O)[C@H](CC(C)C)NC(=O)CNC(=O)[C@H](Cc2c[nH]cn2)NC1=O [copper-64 labelled],dynamic PET,"CD rat, myocardial infarction model, remote myocardium","intravenous, 18.5 MBq, 0 to 5 min",,half-life,2.6 ± 0.2 min
CC(C)[C@@H]1NC(=O)CNC(=O)[C@H](CC(N)=O)NC(=O)[C@H](CCCNC(=N)N)NC(=O)[C@H](Cc2ccc(O)cc2)NC(=O)[C@H](C(C)C)NC(=O)[C@@H](NC(=O)[C@@H](NC(=O)[C@H](CC(N)=O)NC(=O)[C@H](Cc2c[nH]c3ccccc23)NC(=O)[C@H](C)NC(=O)[C@H](Cc2ccccc2)NC(=O)CNC(=O)[C@H](CCCCN)NC(=O)[C@H](Cc2ccccc2)NC(=O)[C@H](Cc2ccccc2)NC(=O)[C@H](CCCCN)NC(=O)OCC2c3ccccc3-c3ccccc32)C(C)C)CSSC[C@@H](C(=O)N[C@@H](Cc2c[nH]cn2)C(=O)N[C@@H](CCCNC(=N)N)C(=O)N[C@@H](CCCNC(=N)N)C(=O)N[C@@H](C)C(=O)N[C@@H](CC(N)=O)C(N)=O)NC(=O)[C@H](C(C)C)NC(=O)[C@H](CCCNC(=N)N)NC1=O,,"ICR mouse, blood","intramammary, 5 mg/kg, day 5, 3 d dosing",,calcium,1.35 ± 0.03 mmol/L
O=C([O-])CNC(=O)CN1CCN(CC(=O)NCC(=O)[O-])CCN(CC(=O)NCC(=O)[O-])CCN(CC(=O)NCC(=O)[O-])CC1.[177Lu+3],,"Sprague-Dawley rat, small intestine","intravenous, dose not given, 2 h",,biodistribution,0.151 ± 0.013 % injected dose/g
CSCC[C@H](NC(=O)CNC(=O)[C@H](CCCCN)NC(=O)[C@H](CC(C)C)NC(=O)[C@@H]1CCCN1C(=O)[C@H](CO)NC(=O)[C@H](Cc1c[nH]cn1)NC(=O)[C@H](Cc1c[nH]c2ccccc12)NC(=O)[C@H](CCCNC(=N)N)NC(=O)[C@H](CC(C)C)NC(=O)[C@H](CCCNC(=N)N)NC(=O)[C@H](Cc1c[nH]c2ccccc12)NC(=O)[C@H](CS)NC(=O)CCCCCNC(=O)CN1CCN(CC(=O)O)CCN(CC(=O)O)CCN(CC(=O)O)CC1)C(=O)O [copper-64 labelled],ex vivo biodistribution,"male C57BL/6J mice, stomach","intravenous, 1.85 MBq, 30 h, B16-F10 tumour-bearing",,tissue uptake,1.66 %ID/g
COc1ccc([C@@H]2CC(=O)c3c(O)cc(O[C@@H]4O[C@H](CO)[C@@H](O)[C@H](O)[C@H]4O[C@@H]4O[C@@H](C)[C@H](O)[C@@H](O)[C@H]4O)cc3O2)cc1O,,"male Sprague-Dawley rats, lean, faeces","oral, 100 mg/kg, 48 to 36 h",,faecal excretion,14.5 ± 12.2 ng
CC(C)[C@H](NC(=O)[C@H](Cc1c[nH]c2ccccc12)NC(=O)[C@H](CCCNC(=N)N)NC(=O)[C@H](CCCNC(=N)N)NC(=O)[C@@H](NC(=O)[C@@H](NC(=O)[C@H](CCCNC(=N)N)NC(=O)[C@@H](NC(=O)[C@@H](NC(=O)[C@H](CCCNC(=N)N)NC(=O)[C@H](CCCNC(=N)N)NC(=O)[C@@H](NC(=O)[C@H](Cc1c[nH]c2ccccc12)NC(=O)[C@H](CCCNC(=N)N)NC(=O)[C@H](CCCNC(=N)N)NC(=O)[C@@H](NC(=O)[C@H](CCCNC(=N)N)NC(=O)[C@H](CCCNC(=N)N)NC(=O)[C@@H](NC(=O)[C@H](Cc1c[nH]c2ccccc12)NC(=O)[C@H](CCCNC(=N)N)NC(=O)[C@@H](N)CCCNC(=N)N)C(C)C)C(C)C)C(C)C)C(C)C)C(C)C)C(C)C)C(C)C)C(=O)N[C@@H](CCCNC(=N)N)C(=O)N[C@@H](CCCNC(=N)N)C(=O)O,measured: lung,mice,"intravenous, 20 mg/kg, after 2 doses, recovery",reference: body weight,organ weight,0.8 ± 0.03%
CC(C)C[C@@H](NC(=O)[C@@H](CCCNC(=N)N)NC(=O)[C@@H](Cc1c[nH]cn1)NC(=O)[C@@H](Cc1c[nH]c2ccccc12)NC(=O)[C@@H](Cc1c[nH]cn1)NC(=O)[C@@H](Cc1ccccc1)NC(=O)[C@H](NC(=O)[C@@H](Cc1ccc(O)cc1)NC(=O)CNC(=O)CNC(=O)CCOCCOCCOCCNC(=O)CN1CCN(CC(=O)O)CCN(CC(=O)O)CC1)[C@H](C)O)C(=O)N[C@H](CC(N)=O)C(=O)N1CCC[C@@H]1C(=O)O [gallium-68 labelled],,"C57BL/6 mice, male","intravenous, 1.85 MBq, 60 min",reference: tumour over liver,tissue ratio,5.36 ± 1.1

# For quick reference, copied from above:
SMILES,test,system,setting,scale,quantity,value
N#[11C]c1ccc(-c2csc(NN=C3CCCC3)n2)cc1,,"C57BL/6 mice, male, kidney","intravenous, 3 MBq, 60 min",,radioactivity uptake,4.08 ± 0.09 %ID/g
COc1ccc([C@@H]2CC(=O)c3c(O)cc(O[C@@H]4O[C@H](CO)[C@@H](O)[C@H](O)[C@H]4O[C@@H]4O[C@@H](C)[C@H](O)[C@@H](O)[C@H]4O)cc3O2)cc1O,,"male Sprague-Dawley rats, lean, faeces","oral, 100 mg/kg, 48 to 36 h",,faecal excretion,14.5 ± 12.2 ng
